# Assay results of several laboratories.
# Numbered parts are unrelated; each lists some results of a single study. Changes are numbered by the printed parent chain.

# Sample 1
# Target: RNA binding protein fox-1 homolog 2, RRM domain, GST-SBP tag (RBFOX2, Homo sapiens, UniProt O43251-10, residues 100-194)
# Method: RNA Bind-n-Seq
# Form: RNA
# Matrix: in vitro
# Concentration: 365 nM
# Notes: natural RNA segment, single round, ends assumed
# Reference: no-protein control
# Direction: higher = stronger binding
# Residues (chain): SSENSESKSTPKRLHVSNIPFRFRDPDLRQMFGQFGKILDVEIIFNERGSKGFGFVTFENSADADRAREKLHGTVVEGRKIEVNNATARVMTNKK
Sequence,RBNS enrichment (R)
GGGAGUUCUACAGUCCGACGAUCCAGAGUAUGCCAGUAUCUUAUUGUUAAAACUGAAUCAAAUAAAUCUUCGAUUCCUGGUUAUUUGGACCAUUGACUCAUCAUGGACUAUAUAAUGUAAUAAGAUUCUUUUCUGGAAUUCUCGGGUGCCAA,0.689
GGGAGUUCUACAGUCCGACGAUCCCUGAUGGCACCCACACAGAGGACCUCUUUGGGGCAAGAUCCAGGUGGUCCCAUAGGUCUUGUGAAAAGGCUUUUUCAGGGAAAAAUAUUUUACUAGUCCAAUCACCCCCUGGAAUUCUCGGGUGCCAA,0.464
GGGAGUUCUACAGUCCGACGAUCAGCCUCACCCAUCAAACCAGUGAAUUUCUCAAUCUUGCCUCACAGUGACUGCAGCGCCAAGCGGCAUCCACCAAGCAUCAAGUUGGAGAAAAGGGAACCCAAGCAGUAGAUGGAAUUCUCGGGUGCCAA,0.203
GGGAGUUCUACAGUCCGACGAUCACCCUUGCUGGGUCACUAUAAUUCUUUAGAAUUACUGAGUGAACUUUAAAAAAAUUUUCUGCAUAGGUUAUAUCCCAGACCACUUAAAUCAGAAUAUCUUGGAUGGAACCUGGAAUUCUCGGGUGCCAA,0.541
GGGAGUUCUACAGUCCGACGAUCGAAGCCCUGUGGCCACAUGUAUGUCAGUAAGGGUUGUACAAAAUAAAUUCUAUUUAUCGCUAUUGUACCCGGAGUUAAGAACAGCUUUGUGUAAACCCUGCCUAGACACAUGGAAUUCUCGGGUGCCAA,0.56
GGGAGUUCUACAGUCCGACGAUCCUAGUGUUUGUGCUAACCUAGUCAGAAGCAAGUGUCUCACUCACUUGCUGCAGAUGGAACAAAUGCCGCCUGGCUUUGUAUUCCCCUUUAGGAUUCUAUUACAUAUGCAAUGGAAUUCUCGGGUGCCAA,0.227
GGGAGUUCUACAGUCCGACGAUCCUUUGGAAAUAAUGACAUAAUAAGAAUUAGACUAUUUCUCAACUUUCUUAAGCGACUACAUCAUAUUUUAAAAUAUUAAUCCUUCAAUAAAGUGGCAAGUAUAAGAAAAUUGGAAUUCUCGGGUGCCAA,0.474
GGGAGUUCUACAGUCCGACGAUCUCUCUCAACUCUGAGGCCCUGGCCAGAUGUCCUCUGACUCUCCCAUCUCUCCCACCCGGCUCUAGGCCAAAAGGCUCGGUACCUCCUUACUGGGAGCCACGUAAAUGGAAUGGAAUUCUCGGGUGCCAA,0.46
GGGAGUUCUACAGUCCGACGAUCAAAUGUUUACUUUGUUCCCUGUCUAUAUAUGCCUUUUGAAAAAUAAACUUGUACCUCAAACUCAAACGUUUGGGUGUUUCAGAAUCACAGGCAACUCAAAAGAAGAUCUGUGGAAUUCUCGGGUGCCAA,0.297
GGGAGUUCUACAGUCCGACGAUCUGAGAACCGCGCCGGUGUCCCCAGAGACCAGGCUGUGUCCCUCUUCUCUUCCCUGCGCCUGUGAUGCUGGGCACUUCAUCUGAUCGGGGGCGUAGCAUCAUAGUAGUUUUUGGAAUUCUCGGGUGCCAA,0.419
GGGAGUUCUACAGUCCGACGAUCCAUUUUUUAAAGAUGUCAAGAAACUAGCUAUAGCUGCCUAAGAAUUGAAUCUAUUGUAUUUCCCUCUUGAUAUUCUACCAUGGUGAUGUCAGCUCAUUUCUAAGAUGCCUUGGAAUUCUCGGGUGCCAA,0.325
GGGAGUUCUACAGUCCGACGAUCUCGGCAAUGCCCCUUUUGGAGCAUGGAAGGGCUUCAGGGAUGGGGCAGCCUGGAAGGACAGGUGGAGGCUGGUACAGUGACUGUCCCAUGCCUGCCAUGGCCACAGGCUCUGGAAUUCUCGGGUGCCAA,0.862

# Sample 2
# Target: Sal-like protein 4, full length isoform A (SALL4, Homo sapiens, UniProt Q9UJQ4, residues 1-1053)
# UniProt Q9UJQ4, sequence (whole entry, looked up): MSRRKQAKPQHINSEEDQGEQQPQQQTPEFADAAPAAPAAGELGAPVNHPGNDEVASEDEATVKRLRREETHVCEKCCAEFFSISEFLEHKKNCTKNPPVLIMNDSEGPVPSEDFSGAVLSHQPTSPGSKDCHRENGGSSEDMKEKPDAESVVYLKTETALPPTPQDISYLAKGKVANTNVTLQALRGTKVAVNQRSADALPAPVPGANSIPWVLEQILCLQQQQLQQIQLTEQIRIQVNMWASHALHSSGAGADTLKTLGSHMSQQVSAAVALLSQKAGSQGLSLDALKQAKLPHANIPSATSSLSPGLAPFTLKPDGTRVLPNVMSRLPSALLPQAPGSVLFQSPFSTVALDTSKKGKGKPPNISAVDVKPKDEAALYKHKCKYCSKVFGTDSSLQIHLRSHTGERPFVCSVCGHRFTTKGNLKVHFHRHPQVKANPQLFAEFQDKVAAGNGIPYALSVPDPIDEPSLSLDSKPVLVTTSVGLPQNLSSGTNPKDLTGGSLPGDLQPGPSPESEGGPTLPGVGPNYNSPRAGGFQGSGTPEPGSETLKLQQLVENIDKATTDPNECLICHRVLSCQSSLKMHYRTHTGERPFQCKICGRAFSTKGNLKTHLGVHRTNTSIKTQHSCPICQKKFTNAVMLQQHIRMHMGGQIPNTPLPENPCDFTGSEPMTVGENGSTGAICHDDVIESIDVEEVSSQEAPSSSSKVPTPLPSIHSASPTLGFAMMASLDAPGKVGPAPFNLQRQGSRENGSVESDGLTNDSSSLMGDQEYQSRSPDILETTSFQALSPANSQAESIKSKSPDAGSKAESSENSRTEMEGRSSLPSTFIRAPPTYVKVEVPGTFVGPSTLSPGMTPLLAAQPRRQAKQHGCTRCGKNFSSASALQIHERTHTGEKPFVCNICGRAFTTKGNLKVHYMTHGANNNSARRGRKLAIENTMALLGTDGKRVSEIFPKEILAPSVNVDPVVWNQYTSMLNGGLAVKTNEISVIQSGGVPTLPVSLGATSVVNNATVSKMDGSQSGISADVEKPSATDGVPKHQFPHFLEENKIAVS
# Method: universal PBM
# Form: double-stranded DNA, one strand shown
# Matrix: in vitro
# Concentration: 600 nM
# Notes: 8-mer, flanks averaged, mean of replicates
# Direction: higher = stronger binding
Sequence,E-score
ACTCAATC,0.0633
AGGGGCCC,-0.385
GGCACCGA,-0.271
ACCGTACA,0.0597
GCAGATTA,0.127
CACATTAC,0.181
AACTATGG,0.101
AACGGCGG,-0.281
GCGCTTAA,-0.145
CAAGAAGC,0.0542
AGGATGCG,-0.0883
ACGCTTGA,0.0448
GATTCGCC,-0.0723
CCGGTCCA,-0.405
ACCTACAG,-0.199
CCATTGAA,0.0299
ACGAGACG,-0.203
CCCTGAGA,-0.243
ACGAATGC,0.0714

# Sample 3
# Target: CCND2, cyclin fold, Cln2 fusion (human)
# Method: yeast growth competition, sequencing
# Matrix: yeast
# Notes: weak parent motif
# Reference: not given
# Direction: higher = stronger binding
# Starting sequence: BRCA2 docking peptide (human); PSIKRNLLNEFDR; partner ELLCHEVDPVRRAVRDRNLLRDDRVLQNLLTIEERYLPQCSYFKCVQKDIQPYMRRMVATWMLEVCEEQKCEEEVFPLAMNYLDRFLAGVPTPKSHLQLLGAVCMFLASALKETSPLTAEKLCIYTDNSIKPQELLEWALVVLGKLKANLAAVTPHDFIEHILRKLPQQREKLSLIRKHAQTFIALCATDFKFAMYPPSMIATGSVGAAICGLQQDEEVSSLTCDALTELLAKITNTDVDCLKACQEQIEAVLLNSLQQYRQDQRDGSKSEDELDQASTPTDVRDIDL
Substitution,normalised enrichment score
PSILRNLLNEFDR [K4L],-0.113
PSIKRNLLNEFDW [R13W],0.834
PNIKRNLLNEFDR [S2N],0.102
PSIKRNLLNSFDR [E10S],0.288
PSIKRNLLNESDR [F11S],-0.488
PSIKRNLLFEFDR [N9F],-0.0513
PSIKRNLLQEFDR [N9Q],0.107
PSIKRNLLNEKDR [F11K],-0.24
PSIKRNLWNEFDR [L8W],0.00229
PSIKRNLLNEFDT [R13T],0.2
PSIKRNLMNEFDR [L8M],0.655
PSIKRNYLNEFDR [L7Y],-0.107
PSIKRNLLNGFDR [E10G],0.109
PWIKRNLLNEFDR [S2W],0.152
PSIKRNLLNIFDR [E10I],-0.104
PSIKRNILNEFDR [L7I],0.842
PSIKRNCLNEFDR [L7C],0.649
PSIDRNLLNEFDR [K4D],0.22
PSIKRFLLNEFDR [N6F],0.318
PSIKRNLDNEFDR [L8D],0.0913
PSIKRNLQNEFDR [L8Q],-0.0761
PSIKYNLLNEFDR [R5Y],0.116
PSIKRNLLNEFDH [R13H],0.136
PSIKRNLLNEFDE [R13E],0.289
PSIKRNLLNEWDR [F11W],0.09

# Sample 4
# Target: Histone acetyltransferase KAT6A, winged helix 2, GST fusion (KAT6A, Homo sapiens, UniProt Q92794, residues 85-181)
# Method: protein binding microarray
# Form: double-stranded DNA, one strand shown
# Matrix: in vitro
# Concentration: not given
# Notes: 8-mer, flanks averaged, mean of 2 arrays, mostly near background
# Reference: not given
# Direction: higher = stronger binding
# Target sequence (chain): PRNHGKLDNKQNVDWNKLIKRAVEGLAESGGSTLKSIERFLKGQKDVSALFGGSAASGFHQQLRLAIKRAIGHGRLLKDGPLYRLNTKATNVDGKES
Sequence,E-score
ATCACAAT,-0.0509
CTCGTCTA,-0.0862
ATCGTAAC,0.151
CGTTTTGA,0.0279
AAATGCGG,0.0343
AAATGCTA,0.147
CTTGATAC,-0.0353
AAAGGGAC,0.0519
CAGTATTA,0.0506
AACATGCT,0.00127
GGTGTTCA,0.0342
CTTAAACA,-0.0119
AGTCCCCG,0.0134
AGCTCGTC,-0.0318
ATCTCCGC,0.136
ACGCACAC,0.0987
ACTGGTTC,0.043
ATAACCGC,0.0135
CATCCACC,0.0315

# For quick reference, copied from above (sample 3):
Substitution,normalised enrichment score
PSIKRNLWNEFDR [L8W],0.00229
PSIKRNCLNEFDR [L7C],0.649
PSIKRNLLNEFDT [R13T],0.2
PSIKRNLLNEWDR [F11W],0.09
PSIKRNLLNGFDR [E10G],0.109
PSILRNLLNEFDR [K4L],-0.113
PSIKRNLLQEFDR [N9Q],0.107
PSIKRNLLNEFDE [R13E],0.289
PSIKRNLDNEFDR [L8D],0.0913
PSIKRNLMNEFDR [L8M],0.655
